Experimental data from different studies.
± marks the error that the study gave.
Cd1d1 dimeric Ig fusion: Cd1d1, dimeric Ig fusion (Mus musculus, UniProt P11609)
Sigmar1: Sigma non-opioid intracellular receptor 1 (Sigmar1, Rattus norvegicus, UniProt Q9R0C9)
Pick1 PDZ domain: PRKCA-binding protein, PDZ domain (Pick1, Rattus norvegicus, UniProt Q9EP80)
Glutamate receptor ionotropic, kainate 3: Glutamate receptor ionotropic, kainate 3 (Rattus norvegicus, UniProt P42264)
VHL with elongin B, C: von Hippel-Lindau disease tumor suppressor, with elongin B, C (VHL, Homo sapiens, UniProt P40337)
FOLH1: Glutamate carboxypeptidase 2 (FOLH1, Homo sapiens, UniProt Q04609)
PRKCA: Protein kinase C alpha type (PRKCA, Homo sapiens, UniProt P17252)
MAPK14: Mitogen-activated protein kinase 14 (MAPK14, Homo sapiens, UniProt Q16539)
MAPK8: Mitogen-activated protein kinase 8 (MAPK8, Homo sapiens, UniProt P45983)
Prkcd C1b domain: Protein kinase C delta type, C1b domain (Prkcd, Mus musculus, UniProt P28867)

Amino acid sequences for entries named in this document (tags omitted). Residues count along the entry.
UniProt Q9R0C9, whole entry: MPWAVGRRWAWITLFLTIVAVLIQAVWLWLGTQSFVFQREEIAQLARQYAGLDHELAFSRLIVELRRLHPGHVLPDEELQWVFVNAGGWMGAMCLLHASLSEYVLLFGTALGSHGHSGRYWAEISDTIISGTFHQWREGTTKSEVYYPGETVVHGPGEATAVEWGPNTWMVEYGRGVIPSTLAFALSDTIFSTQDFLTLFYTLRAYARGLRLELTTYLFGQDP
UniProt Q9EP80, whole entry: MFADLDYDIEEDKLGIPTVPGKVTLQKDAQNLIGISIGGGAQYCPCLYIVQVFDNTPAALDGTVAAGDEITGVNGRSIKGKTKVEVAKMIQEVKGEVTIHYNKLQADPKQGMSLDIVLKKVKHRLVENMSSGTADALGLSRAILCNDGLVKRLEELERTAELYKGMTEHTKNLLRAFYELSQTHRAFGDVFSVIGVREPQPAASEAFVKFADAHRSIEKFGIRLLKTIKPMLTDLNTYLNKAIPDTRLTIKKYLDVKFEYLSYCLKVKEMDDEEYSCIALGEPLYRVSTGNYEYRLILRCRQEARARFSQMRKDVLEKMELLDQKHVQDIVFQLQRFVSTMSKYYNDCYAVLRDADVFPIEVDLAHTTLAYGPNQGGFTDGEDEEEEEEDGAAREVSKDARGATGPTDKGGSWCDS
UniProt P42264, 32-919 limits assumed: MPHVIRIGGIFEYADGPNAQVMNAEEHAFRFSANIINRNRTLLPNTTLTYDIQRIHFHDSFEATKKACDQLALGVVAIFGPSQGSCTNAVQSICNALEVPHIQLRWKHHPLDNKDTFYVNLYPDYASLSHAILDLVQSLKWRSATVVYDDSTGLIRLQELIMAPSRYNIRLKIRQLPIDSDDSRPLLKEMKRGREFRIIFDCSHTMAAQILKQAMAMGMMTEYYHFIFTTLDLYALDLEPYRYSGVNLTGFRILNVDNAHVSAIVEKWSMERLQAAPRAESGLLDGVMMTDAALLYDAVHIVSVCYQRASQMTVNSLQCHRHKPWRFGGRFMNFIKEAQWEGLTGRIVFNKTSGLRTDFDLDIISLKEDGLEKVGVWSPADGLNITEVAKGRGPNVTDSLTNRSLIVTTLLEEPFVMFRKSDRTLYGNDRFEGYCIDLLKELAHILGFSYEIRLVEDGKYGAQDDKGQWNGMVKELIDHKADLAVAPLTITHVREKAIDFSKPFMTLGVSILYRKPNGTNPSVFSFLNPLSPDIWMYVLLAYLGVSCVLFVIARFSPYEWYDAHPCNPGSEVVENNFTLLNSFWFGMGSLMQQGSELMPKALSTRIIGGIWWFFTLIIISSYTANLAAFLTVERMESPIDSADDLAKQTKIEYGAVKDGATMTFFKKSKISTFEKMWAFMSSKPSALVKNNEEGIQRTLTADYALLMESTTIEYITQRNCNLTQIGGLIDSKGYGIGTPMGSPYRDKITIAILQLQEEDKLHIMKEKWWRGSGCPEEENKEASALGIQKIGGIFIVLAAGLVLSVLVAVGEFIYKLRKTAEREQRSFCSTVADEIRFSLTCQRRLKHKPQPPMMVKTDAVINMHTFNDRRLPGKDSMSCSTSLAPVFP
UniProt Q04609, whole entry: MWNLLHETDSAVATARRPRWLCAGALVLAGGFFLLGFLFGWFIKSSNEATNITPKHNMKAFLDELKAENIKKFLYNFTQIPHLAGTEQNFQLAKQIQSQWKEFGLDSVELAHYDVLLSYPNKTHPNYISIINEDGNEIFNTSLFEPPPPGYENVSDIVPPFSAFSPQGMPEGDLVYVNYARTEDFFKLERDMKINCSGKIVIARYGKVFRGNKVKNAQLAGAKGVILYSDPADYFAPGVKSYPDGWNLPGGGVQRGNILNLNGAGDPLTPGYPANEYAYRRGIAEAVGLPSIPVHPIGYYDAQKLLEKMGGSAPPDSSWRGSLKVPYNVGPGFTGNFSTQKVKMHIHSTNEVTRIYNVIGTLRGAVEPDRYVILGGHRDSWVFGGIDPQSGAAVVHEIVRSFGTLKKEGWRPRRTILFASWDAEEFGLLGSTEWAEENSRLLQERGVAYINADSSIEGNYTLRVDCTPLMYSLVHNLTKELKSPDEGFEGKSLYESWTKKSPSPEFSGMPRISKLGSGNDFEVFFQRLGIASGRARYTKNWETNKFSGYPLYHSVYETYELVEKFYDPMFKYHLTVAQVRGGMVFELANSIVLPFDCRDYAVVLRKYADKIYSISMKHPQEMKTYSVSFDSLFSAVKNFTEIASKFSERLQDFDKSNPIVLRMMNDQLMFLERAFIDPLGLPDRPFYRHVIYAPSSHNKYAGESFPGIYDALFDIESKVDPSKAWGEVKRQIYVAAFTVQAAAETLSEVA
UniProt Q16539, whole entry: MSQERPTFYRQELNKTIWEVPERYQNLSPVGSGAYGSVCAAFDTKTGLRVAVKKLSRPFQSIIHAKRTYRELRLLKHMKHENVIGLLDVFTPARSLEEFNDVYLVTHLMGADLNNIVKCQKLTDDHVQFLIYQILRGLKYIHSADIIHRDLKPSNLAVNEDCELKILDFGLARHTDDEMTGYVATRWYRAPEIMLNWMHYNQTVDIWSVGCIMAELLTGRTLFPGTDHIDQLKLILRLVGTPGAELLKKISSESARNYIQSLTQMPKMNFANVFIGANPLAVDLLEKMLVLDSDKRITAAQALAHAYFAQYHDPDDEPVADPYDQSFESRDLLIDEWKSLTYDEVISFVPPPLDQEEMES
UniProt P45983, whole entry: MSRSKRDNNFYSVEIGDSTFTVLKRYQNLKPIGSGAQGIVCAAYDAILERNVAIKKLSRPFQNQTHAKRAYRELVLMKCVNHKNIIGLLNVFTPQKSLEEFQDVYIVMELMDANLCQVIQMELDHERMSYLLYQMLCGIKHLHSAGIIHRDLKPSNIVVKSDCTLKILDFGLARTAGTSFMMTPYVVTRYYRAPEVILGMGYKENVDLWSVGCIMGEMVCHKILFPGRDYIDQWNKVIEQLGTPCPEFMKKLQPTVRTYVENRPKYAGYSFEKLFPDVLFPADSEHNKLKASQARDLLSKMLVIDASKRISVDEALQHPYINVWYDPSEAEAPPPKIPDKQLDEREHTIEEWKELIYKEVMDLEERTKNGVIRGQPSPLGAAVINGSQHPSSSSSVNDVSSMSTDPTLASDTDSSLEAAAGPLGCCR
UniProt P28867, 231-280 limits assumed: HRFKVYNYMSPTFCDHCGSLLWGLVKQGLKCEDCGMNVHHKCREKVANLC
UniProt Q9NYA1, 1-470 isoform 2: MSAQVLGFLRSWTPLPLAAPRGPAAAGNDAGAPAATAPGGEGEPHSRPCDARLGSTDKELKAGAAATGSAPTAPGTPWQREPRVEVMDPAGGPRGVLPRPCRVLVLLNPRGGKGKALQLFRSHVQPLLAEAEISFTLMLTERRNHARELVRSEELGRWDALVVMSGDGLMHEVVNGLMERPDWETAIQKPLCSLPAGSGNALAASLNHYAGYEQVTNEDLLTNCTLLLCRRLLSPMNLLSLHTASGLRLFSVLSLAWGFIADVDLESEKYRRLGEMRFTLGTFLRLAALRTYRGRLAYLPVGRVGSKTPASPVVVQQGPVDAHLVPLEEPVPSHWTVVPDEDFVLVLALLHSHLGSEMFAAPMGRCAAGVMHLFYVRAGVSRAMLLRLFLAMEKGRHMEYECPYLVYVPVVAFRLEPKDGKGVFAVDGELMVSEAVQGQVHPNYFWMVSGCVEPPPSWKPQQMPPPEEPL
UniProt P30419, whole entry: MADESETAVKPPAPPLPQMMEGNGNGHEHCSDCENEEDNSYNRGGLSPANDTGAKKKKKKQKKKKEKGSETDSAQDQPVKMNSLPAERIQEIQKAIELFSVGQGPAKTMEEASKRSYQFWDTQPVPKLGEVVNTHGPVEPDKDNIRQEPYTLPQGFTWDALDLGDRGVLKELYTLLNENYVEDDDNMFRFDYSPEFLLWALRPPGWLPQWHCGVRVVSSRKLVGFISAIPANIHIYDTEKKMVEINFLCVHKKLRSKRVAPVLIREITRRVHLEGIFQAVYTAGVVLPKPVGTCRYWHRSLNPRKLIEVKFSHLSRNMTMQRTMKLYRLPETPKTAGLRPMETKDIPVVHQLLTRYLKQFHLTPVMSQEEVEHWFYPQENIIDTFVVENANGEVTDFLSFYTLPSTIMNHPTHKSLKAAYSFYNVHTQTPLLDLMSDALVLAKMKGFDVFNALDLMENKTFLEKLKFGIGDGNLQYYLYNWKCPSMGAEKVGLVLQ
UniProt Q9Y5Z0, 63-460 E331A limits assumed: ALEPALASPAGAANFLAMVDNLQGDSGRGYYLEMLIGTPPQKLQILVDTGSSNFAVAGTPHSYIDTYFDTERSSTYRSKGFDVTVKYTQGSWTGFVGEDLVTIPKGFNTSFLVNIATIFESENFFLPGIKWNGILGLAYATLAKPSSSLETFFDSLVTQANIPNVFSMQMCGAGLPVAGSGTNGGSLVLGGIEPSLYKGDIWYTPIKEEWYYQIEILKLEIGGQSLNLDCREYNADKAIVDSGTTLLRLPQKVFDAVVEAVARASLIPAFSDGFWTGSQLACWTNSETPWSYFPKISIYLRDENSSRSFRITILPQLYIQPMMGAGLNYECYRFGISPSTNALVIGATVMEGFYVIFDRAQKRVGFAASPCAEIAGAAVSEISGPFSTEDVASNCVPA
UniProt P30542, whole entry: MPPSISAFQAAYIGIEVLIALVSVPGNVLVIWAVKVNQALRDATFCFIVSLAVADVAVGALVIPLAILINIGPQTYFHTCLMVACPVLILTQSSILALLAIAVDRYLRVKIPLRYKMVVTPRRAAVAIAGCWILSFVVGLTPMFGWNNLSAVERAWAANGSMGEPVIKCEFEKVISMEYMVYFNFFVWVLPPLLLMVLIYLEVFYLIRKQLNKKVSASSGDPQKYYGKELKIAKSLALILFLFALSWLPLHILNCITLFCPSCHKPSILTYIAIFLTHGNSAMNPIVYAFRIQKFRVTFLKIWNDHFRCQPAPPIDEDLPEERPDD
UniProt P35462, whole entry: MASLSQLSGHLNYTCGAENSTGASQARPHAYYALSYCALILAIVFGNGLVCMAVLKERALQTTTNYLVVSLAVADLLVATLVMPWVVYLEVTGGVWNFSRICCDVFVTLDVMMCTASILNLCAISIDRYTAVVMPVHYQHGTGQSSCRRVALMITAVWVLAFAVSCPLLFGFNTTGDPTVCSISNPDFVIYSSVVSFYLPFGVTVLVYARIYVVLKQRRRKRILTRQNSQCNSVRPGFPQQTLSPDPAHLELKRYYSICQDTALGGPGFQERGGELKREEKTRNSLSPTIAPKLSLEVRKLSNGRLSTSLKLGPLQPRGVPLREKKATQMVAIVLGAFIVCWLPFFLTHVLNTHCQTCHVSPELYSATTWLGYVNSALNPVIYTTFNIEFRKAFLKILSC
UniProt P53779, 1-422 isoform 2: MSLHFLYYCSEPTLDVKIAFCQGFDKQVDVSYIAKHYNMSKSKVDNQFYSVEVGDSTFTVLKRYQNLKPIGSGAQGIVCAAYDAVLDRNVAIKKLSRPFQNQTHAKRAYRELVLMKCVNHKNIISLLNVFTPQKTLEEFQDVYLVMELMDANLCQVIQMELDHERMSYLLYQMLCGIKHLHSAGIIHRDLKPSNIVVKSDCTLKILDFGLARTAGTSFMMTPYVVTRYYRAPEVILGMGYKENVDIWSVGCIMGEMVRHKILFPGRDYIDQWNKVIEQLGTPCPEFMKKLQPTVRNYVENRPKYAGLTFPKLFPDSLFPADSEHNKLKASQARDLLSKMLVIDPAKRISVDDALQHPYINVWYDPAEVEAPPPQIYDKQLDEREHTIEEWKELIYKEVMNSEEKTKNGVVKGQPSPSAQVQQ
UniProt O75716, 13-305 limits assumed: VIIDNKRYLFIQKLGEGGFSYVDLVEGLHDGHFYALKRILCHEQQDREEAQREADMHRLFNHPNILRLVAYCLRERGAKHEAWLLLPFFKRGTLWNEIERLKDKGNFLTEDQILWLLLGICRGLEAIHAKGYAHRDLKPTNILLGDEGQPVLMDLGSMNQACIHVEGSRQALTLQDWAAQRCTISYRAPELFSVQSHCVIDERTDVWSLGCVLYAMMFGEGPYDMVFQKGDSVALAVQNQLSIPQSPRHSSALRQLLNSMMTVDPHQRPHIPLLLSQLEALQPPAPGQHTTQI
UniProt Q60492, whole entry: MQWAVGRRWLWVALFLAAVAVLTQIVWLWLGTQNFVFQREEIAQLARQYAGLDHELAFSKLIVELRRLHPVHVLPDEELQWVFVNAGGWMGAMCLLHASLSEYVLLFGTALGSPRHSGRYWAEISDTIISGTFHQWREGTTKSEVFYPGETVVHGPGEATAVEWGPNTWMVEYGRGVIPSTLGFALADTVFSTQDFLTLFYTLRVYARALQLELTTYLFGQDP
UniProt P28221, whole entry: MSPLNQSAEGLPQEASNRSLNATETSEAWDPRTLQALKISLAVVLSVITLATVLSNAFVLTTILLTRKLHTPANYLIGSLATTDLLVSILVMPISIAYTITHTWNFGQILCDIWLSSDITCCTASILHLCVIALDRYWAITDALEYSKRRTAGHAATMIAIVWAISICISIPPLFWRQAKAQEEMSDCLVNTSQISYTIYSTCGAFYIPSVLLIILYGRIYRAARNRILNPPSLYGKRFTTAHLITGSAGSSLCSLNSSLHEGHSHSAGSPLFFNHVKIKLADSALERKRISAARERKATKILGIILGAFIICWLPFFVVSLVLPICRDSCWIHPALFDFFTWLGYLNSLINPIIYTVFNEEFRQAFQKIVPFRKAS

SMILES	target	test	system	conditions	endpoint	result
CCCCCCCCCCCCCC[C@@H](O)[C@@H](O)[C@H](CO[C@H]1O[C@H](CO)[C@H](O)[C@H](O)[C@H]1O)NC(=O)CCCCCCCc1ccc(-c2ccccc2)cc1	Cd1d1 dimeric Ig fusion	binding, competitive microarray binding	–	added: printed glycolipid 100 µM	Ki	13 ± 4.8 µM
CCCCCCCCCCCCc1ccc(C(=O)NC2(C(=N)N)CC2)cc1	SPHK1 (Homo sapiens, UniProt Q9NYA1)	inhibitor, FlashPlate	–	–	Ki	0.3 µM
Cc1cccc(CSc2nc(N)c(C#N)c(-c3cccc(F)c3)c2C#N)n1	ADORA2A (Homo sapiens, UniProt P29274)	radioligand competition binding	HEK293 membranes	1 h, 25 °C, added: [3H]ZM241385 0.8 nM	Ki	0.072 ± 0.024 µM
N=C(N)NCCC[C@H](NC(=O)c1cc(C(=O)O)cc([C@H]2CCN[C@@H]2C(=O)O)c1)C(=O)O	NMDA receptor (rat)	binding, radioligand binding	rat cortical synaptosomes	added: [3H]CGP39653	Ki	10 to 50 µM
C/C(=N\OCCN1CCN(C)CC1)c1ccc(C(F)(F)F)cc1	Sigmar1	radioligand binding	rat	–	Ki	0.0552 ± 0.00318 µM
CCOC(=O)NC(=O)/C(C#N)=C/c1ccc(Cl)cc1	Pick1 PDZ domain	binding, fluorescence polarization	–	added: labelled hDAT C-terminal peptide	Ki	23 ± 0.7 µM
O=C(OCc1ccccc1)c1ccccc1OC1CCNCC1	NMT1 (Homo sapiens, UniProt P30419)	enzyme activity, inhibitor, CPM fluorescence	–	–	Ki	> 100 µM
CCCCCCCCCCCCCC[C@@H](O)[C@@H](O)[C@H](CO[C@H]1O[C@H](CO)[C@H](O)[C@H](O)[C@H]1O)NC(=O)CCCCCCCCCCCCCCc1ccccc1	Cd1d1 dimeric Ig fusion	binding, competitive microarray binding	–	added: printed glycolipid 100 µM	Ki	16 ± 3.2 µM
O=C(O)CNC(=O)c1cc(C(=O)O)cc([C@H]2CCN[C@@H]2C(=O)O)c1	NMDA receptor (rat)	binding, radioligand binding	rat cortical synaptosomes	added: [3H]CGP39653	Ki	0.6 µM
CCC[C@H](O)[C@H](NC[C@@H]1Cc2cccc(c2)CCCCc2cc(cc(N(CCC)S(C)(=O)=O)c2)C(=O)N1)C(=O)NCC(C)C	Beta-secretase 2 (BACE2, Homo sapiens, UniProt Q9Y5Z0, E331A)	enzyme activity, inhibitor, fluorogenic peptide substrate	–	catalytic domain	Ki	0.099 ± 0.029 µM
CCC(NC(=O)C(CC(C)C)NC(=O)Cc1ccncc1)C(=O)C(=O)NCc1cc(OC)cc(OC)c1 (stereo not drawn)	Calpain-2 catalytic subunit (Homo sapiens, UniProt P17655)	enzyme activity, inhibitor, Suc-Leu-Tyr-AMC hydrolysis	recombinant enzyme	–	Ki	0.043 ± 0.011 µM
O=C(O)c1cc(C(=O)N2CCC[C@H]2C(=O)O)cc([C@H]2CCN[C@@H]2C(=O)O)c1	Glutamate receptor ionotropic, kainate 3	binding, radioligand binding	Sf9 membranes	homomeric receptor, added: [3H]kainate	Ki	2.41 ± 1.06 µM
Cc1ncsc1-c1ccc(CNC(=O)[C@@H]2C[C@@H](O)CN2C(=O)c2cccc(O)c2)cc1	VHL with elongin B, C	inhibitor, fluorescence polarization	VHL-elonginB-elonginC complex	1% DMSO, added: FAM-DEALA-Hyp-YIPD peptide	Ki	2.8 µM
N#Cc1c(N)nc(SCc2ncc[nH]2)c(C#N)c1-c1cccc(O)c1	ADORA1 (Homo sapiens, UniProt P30542)	radioligand displacement	HEK293 membranes	1 h, 25 °C, added: 0.5 nM [3H]DPCPX	Ki	0.0096 ± 0.004 µM
O[C@@H](c1ccc(F)cc1)C(F)(F)CCN1CCC(O)(c2ccc(Cl)cc2)CC1 (racemic)	DRD3 (Homo sapiens, UniProt P35462)	–	–	–	Ki	34.1 ± 6.49 µM
O=C(NCc1ccc(-c2cnco2)cc1)[C@@H]1C[C@@H](O)CN1C(=O)c1cccc(O)c1	VHL with elongin B, C	inhibitor, fluorescence polarization	VHL-elonginB-elonginC complex	1% DMSO, added: FAM-DEALA-Hyp-YIPD peptide	Ki	13.3 µM
CC[N+]1=C(C=CC=CC=CC=C2N(CCCCCC(=O)NCCOCCOCC(=O)NCCCC[C@H](NC(=O)N[C@@H](CCC(=O)O)C(=O)O)C(=O)O)c3ccc(S(=O)(=O)O)cc3C2(C)C)C(C)(C)c2cc(S(=O)(=O)[O-])ccc21	FOLH1	enzyme activity, inhibitor	–	compound in water, added: [3H]NAAG 30 nM	Ki	7e-06 ± 4e-07 µM
CCCCCCCCC(CCCCCC=CCCCCCC(CCCCCCCC)C(=O)OCC1(CO)CC(=C(C)C)C(=O)O1)C(=O)OCC1(CO)CC(=C(C)C)C(=O)O1 (racemic)	PRKCA	binding, [3H]PDBu competition	–	added: phosphatidylserine 100 µg/mL	Ki	0.05 ± 0.013 µM
COC(=O)[C@@]1(C)C=C(C(=O)Nc2cccc(C(=O)NC34CC(Nc5nccc(-c6cccnc6)n5)(C3)C4)c2)C(=O)CC1	MAPK10 (Homo sapiens, UniProt P53779)	enzyme activity, inhibitor	–	0.06097 µM	remaining activity	0.226 fraction of control
CC[N+]1=C(C=CC=CC=C2N(CCCCCC(=O)NCCOCCOCC(=O)NCCCC[C@H](NC(=O)N[C@@H](CCC(=O)O)C(=O)O)C(=O)O)c3ccc4c(S(=O)(=O)O)cc(S(=O)(=O)O)cc4c3C2(C)C)C(C)(C)c2c1ccc1c(S(=O)(=O)O)cc(S(=O)(=O)[O-])cc21	FOLH1	enzyme activity, inhibitor	–	compound in water, added: [3H]NAAG 30 nM	Ki	5e-05 ± 2e-05 µM
COC(=O)C1(C)C=C(C(=O)NCC(C)(C)O)C(=O)CC1 (stereo not drawn)	MAPK14	D-peptide displacement, fluorescence polarization	–	–	Ki	55.9 ± 6.5 µM

SMILES	target	test	system	conditions	endpoint	result
O=C(O)c1cc(C(=O)N[C@@H](Cc2ccc(O)cc2)C(=O)O)cc([C@H]2CCN[C@@H]2C(=O)O)c1	Glutamate receptor ionotropic, kainate 3	binding, radioligand binding	Sf9 membranes	homomeric receptor, added: [3H]kainate	Ki	5.69 ± 0.9 µM
COC(=O)C1(C)C=C(C(=O)NC(C)(C)CO)C(=O)CC1 (stereo not drawn)	MAPK8	D-peptide displacement, fluorescence polarization	–	–	Ki	> 200 µM
CCCCCCCCC(CCCCCCCC=CCCCCCCCC(CCCCCCCC)C(=O)OCC1(CO)CC(=C(C)C)C(=O)O1)C(=O)OCC1(CO)CC(=C(C)C)C(=O)O1 (racemic)	Prkcd C1b domain	binding, [3H]PDBu competition	–	5 min, 37 °C, added: phosphatidylserine 100 µg/mL	Ki	0.00252 ± 0.00046 µM
CCc1cc2c(cc1C(C)=NN=C(C)c1cc3c(cc1CC)C(C)(C)CCC3(C)C)C(C)(C)CCC2(C)C	Bcl-2-related protein A1 (Mus musculus, UniProt Q07440, C113S/P104K)	binding, inhibitor, fluorescence polarization	–	added: FITC-labelled Noxa peptide	Ki	> 20.3 µM
O=C(O)c1cc(C(=O)N[C@@H](CS)C(=O)O)cc([C@H]2CCN[C@@H]2C(=O)O)c1	Glutamate receptor ionotropic, kainate 3	binding, radioligand binding	Sf9 membranes	homomeric receptor, added: [3H]kainate	Ki	10 to 50 µM
CC(C)OC(=O)NC(=O)/C(C#N)=C/c1ccc(Cl)c(Cl)c1	Pick1 PDZ domain	binding, fluorescence polarization	–	added: labelled hDAT C-terminal peptide	Ki	11 ± 1.7 µM
C/C(=N\OCCNCC1CC1)c1ccc(C(F)(F)F)cc1	Sigmar1	radioligand binding	rat	–	Ki	0.183 ± 0.00891 µM
CCOC(=O)C1=CC(C(=O)OCC)(c2ccc(Br)cc2)CCC1=O (stereo not drawn)	MAPK8	docking peptide binding, competitive inhibitor, fluorescence polarization	–	added: labelled JIP1 peptide	Ki	8.1 ± 3.2 µM
COc1cc(Nc2ccnc3cc(-c4ccncc4)ccc23)cc(OC)c1OC	STK16 (Homo sapiens, UniProt O75716)	–	–	–	Ki	> 10 µM
NC(=O)c1cccc(C#CCNCC2OC(n3cnc4c(N)ncnc43)C(O)C2O)c1 (stereo not drawn)	NNMT (Homo sapiens, UniProt P40261)	binding, fluorescence polarisation competition	–	30 min, room temperature, enzyme 0.5 µM, added: fluorescent probe 5 nM	Ki	5.6 ± 1.2 µM
COc1cc2c(cc1OC)CN(C(C)CCc1ccc(O)cc1)CC2 (single isomer, unassigned)	SIGMAR1 (Cavia porcellus, UniProt Q60492)	binding, radioligand displacement	guinea pig brain homogenate	added: [3H](+)-pentazocine	Ki	0.0876 ± 0.0201 µM
CCCCCCCCC(CCCC=CCCCC(CCCCCCCC)C(=O)OCC1(CO)CC(=C(C)C)C(=O)O1)C(=O)OCC1(CO)CC(=C(C)C)C(=O)O1 (racemic)	PRKCA	binding, [3H]PDBu competition	–	added: phosphatidylserine 100 µg/mL	Ki	0.0159 ± 0.0014 µM
CCOC(=O)NC(=O)/C(C#N)=C/c1ccc(C)c(C)c1	Pick1 PDZ domain	binding, fluorescence polarization	–	added: labelled hDAT C-terminal peptide	Ki	23 ± 3 µM
C#CCCCOC(=O)[C@]1(C)C=C(C(=O)OC(C)(C)C)C(=O)CC1	MAPK14	D-peptide displacement, fluorescence polarization	–	–	Ki	0.9 ± 0.2 µM
NC(N)=NC(=O)N1CCc2c(F)ccc(-c3c(F)cc(F)cc3F)c2C1	HTR1D (Homo sapiens, UniProt P28221)	radioligand binding	–	–	Ki	0.05 µM
COC(=O)C1(C)C=C(C(=O)OCc2ccccc2)C(=O)C1 (stereo not drawn)	MAPK8	D-peptide displacement, fluorescence polarization	–	–	Ki	2.1 ± 0.3 µM
Cc1cc(-c2cc3nc(-c4ccc(N5CCC(F)CC5)nc4)ccc3s2)cnn1	Alpha-synuclein, PD brain aggregates (SNCA, Homo sapiens, UniProt P37840)	binding	Parkinson's disease brain homogenate	added: [3H]asyn-44 1 nM	Ki	0.0121 µM
C=CCC1(C(=O)OC)C=C(C(=O)OC(C)(C)C)C(=O)CC1 (stereo not drawn)	MAPK8	docking peptide binding, competitive inhibitor, fluorescence polarization	–	added: labelled JIP1 peptide	Ki	2.9 ± 0.7 µM
CC1(C)C(=CC=C2CCCC(C=CC3=[N+](CCCCS(=O)(=O)O)c4ccc(S(=O)(=O)O)cc4C3(C)C)=C2Oc2ccc(S(=O)(=O)O)cc2)N(CCCCCC(=O)NCCOCCOCC(=O)NCCCC[C@H](NC(=O)N[C@@H](CCC(=O)O)C(=O)O)C(=O)O)c2ccc(S(=O)(=O)[O-])cc21	FOLH1	enzyme activity, inhibitor	–	compound in water, added: [3H]NAAG 30 nM	Ki	4e-05 ± 1e-05 µM
COC(=O)C1(C)C=C(c2ncc(C)o2)C(=O)CC1 (stereo not drawn)	MAPK14	D-peptide displacement, fluorescence polarization	–	–	Ki	21.2 ± 2.8 µM
CCCCCCCCC(CCCCC=CCCCCC(CCCCCCCC)C(=O)OCC1(CO)CC(=C(C)C)C(=O)O1)C(=O)OCC1(CO)CC(=C(C)C)C(=O)O1 (racemic)	Prkcd C1b domain	binding, [3H]PDBu competition	–	5 min, 37 °C, added: phosphatidylserine 100 µg/mL	Ki	0.0008 ± 5e-05 µM

Excerpt of the above:
SMILES	target	test	system	conditions	endpoint	result
COC(=O)[C@@]1(C)C=C(C(=O)Nc2cccc(C(=O)NC34CC(Nc5nccc(-c6cccnc6)n5)(C3)C4)c2)C(=O)CC1	MAPK10 (Homo sapiens, UniProt P53779)	enzyme activity, inhibitor	–	0.06097 µM	remaining activity	0.226 fraction of control
CC1(C)C(=CC=C2CCCC(C=CC3=[N+](CCCCS(=O)(=O)O)c4ccc(S(=O)(=O)O)cc4C3(C)C)=C2Oc2ccc(S(=O)(=O)O)cc2)N(CCCCCC(=O)NCCOCCOCC(=O)NCCCC[C@H](NC(=O)N[C@@H](CCC(=O)O)C(=O)O)C(=O)O)c2ccc(S(=O)(=O)[O-])cc21	FOLH1	enzyme activity, inhibitor	–	compound in water, added: [3H]NAAG 30 nM	Ki	4e-05 ± 1e-05 µM
COc1cc(Nc2ccnc3cc(-c4ccncc4)ccc23)cc(OC)c1OC	STK16 (Homo sapiens, UniProt O75716)	–	–	–	Ki	> 10 µM
COc1cc2c(cc1OC)CN(C(C)CCc1ccc(O)cc1)CC2 (single isomer, unassigned)	SIGMAR1 (Cavia porcellus, UniProt Q60492)	binding, radioligand displacement	guinea pig brain homogenate	added: [3H](+)-pentazocine	Ki	0.0876 ± 0.0201 µM
Cc1cc(-c2cc3nc(-c4ccc(N5CCC(F)CC5)nc4)ccc3s2)cnn1	Alpha-synuclein, PD brain aggregates (SNCA, Homo sapiens, UniProt P37840)	binding	Parkinson's disease brain homogenate	added: [3H]asyn-44 1 nM	Ki	0.0121 µM
CCc1cc2c(cc1C(C)=NN=C(C)c1cc3c(cc1CC)C(C)(C)CCC3(C)C)C(C)(C)CCC2(C)C	Bcl-2-related protein A1 (Mus musculus, UniProt Q07440, C113S/P104K)	binding, inhibitor, fluorescence polarization	–	added: FITC-labelled Noxa peptide	Ki	> 20.3 µM
N=C(N)NCCC[C@H](NC(=O)c1cc(C(=O)O)cc([C@H]2CCN[C@@H]2C(=O)O)c1)C(=O)O	NMDA receptor (rat)	binding, radioligand binding	rat cortical synaptosomes	added: [3H]CGP39653	Ki	10 to 50 µM
